Assay results collected from several papers.
Protocols differ between the studies behind these lines. Several values in a cell are separate wells, animals, samples, runs or records. Numbers after ± are the reported error.

Molecule | assay | test system | conditions | scale | quantity | result
N=C(N)NCCC[C@H](NC(=O)[C@H](CCCNC(=N)N)NC(=O)[C@H](CCCNC(=N)N)NC(=O)[C@H](CCCNC(=N)N)NC(=O)[C@H](CCCNC(=N)N)NC(=O)[C@H](CCCNC(=N)N)NC(=O)[C@H](CCCNC(=N)N)NC(=O)[C@H](CCCNC(=N)N)NC(=O)c1ccc2c(c1)C(=O)OC21c2ccc(O)cc2Oc2cc(O)ccc21)C(=O)O | no effect | Sprague-Dawley rat, excised skin | 50 µmol/L, 37 °C, FAM-labelled CPP conjugate | relative to: free FAM | apparent skin permeability | no effect
Nc1nc(N)nc(N)n1 | LC-MS/MS | pregnant female rat, serum | oral, 1000 mg/kg/day, 10 days | – | serum concentration | 683 µg/mL and 611 µg/mL and 356 µg/mL and 117 µg/mL
CCCCCCCCCCCCCCCC[N+](C)(C)CCCCCCCCCCCCCCCC | ultrafiltration | human serum | – | – | unbound fraction in blood | 0.066
O[C@H]1CCCN[C@@H]1CCCn1cnc2c(Cl)c(Cl)ccc21 | – | healthy human volunteers, plasma | oral, 25 mg, day 1, multiple ascending dose | – | half-life | 0.175 days
[123I]c1cncc(OC[C@@H]2CCN2)c1 | SPECT | human, temporal lobe | intravenous bolus, 8.1 mCi | relative to: plasma | tissue/plasma ratio | 8.2
CC[C@H](C)[C@H](NC(=O)[C@H](CCCCN)NC(=O)[C@H](CCCCN)NC(=O)[C@H](CC(C)C)NC(=O)[C@@H](NC(=O)[C@H](CCCCN)NC(=O)[C@H](C)NC(=O)[C@H](C)NC(=O)[C@@H](NC(=O)CNC(=O)[C@H](C)NC(=O)[C@@H](NC(=O)[C@H](CCCCN)NC(=O)[C@@H]1CCCN1C(=O)[C@H](Cc1ccccc1)NC(=O)[C@@H](N)Cc1ccccc1)C(C)C)C(C)C)C(C)C)C(=O)N[C@@H](Cc1ccccc1)C(=O)N[C@H]1CSSC[C@@H](C(=O)O)NC(=O)[C@H](CCCCN)NC(=O)[C@H](CCCCN)NC(=O)[C@H](CO)NC(=O)[C@H]([C@@H](C)CC)NC(=O)[C@H]([C@@H](C)O)NC1=O | haemolysis | horse erythrocytes | 2 h, 37 °C | – | HC50 | 80.8 µM
CCCCCOc1ccc(-c2ccc(-c3ccc(C(=O)N[C@H]4C[C@@H](O)[C@@H](O)NC(=O)[C@@H]5[C@@H](O)[C@@H](C)CN5C(=O)[C@H]([C@@H](C)O)NC(=O)[C@H]([C@H](O)[C@@H](O)c5ccc(O)cc5)NC(=O)[C@@H]5C[C@@H](O)CN5C(=O)[C@H]([C@@H](C)O)NC4=O)cc3)cc2)cc1 | – | human infants, plasma | intravenous, 1.5 mg/kg/day after 3 mg/kg loading | – | Cmax steady state | 5.2 µg/mL
H-HGLASTLTRWAHYNALIRAFGGG-NH2 (C-amide) | – | rat, brain homogenate | intravenous, 40 µg/100 g, 3.5 h, together with: succinate + rotenone, 200 µM ADP | – | ADP-stimulated respiration | no effect
CC(=O)N[C@H](CCCCNC(=O)C(C)F)C(=O)N[C@@H](CS)C(=O)N[C@@H](CS)C(=O)N[C@@H](CCC(=O)O)C(=O)N[C@@H](Cc1c[nH]cn1)C(=O)N[C@H](Cc1ccccc1)C(=O)N[C@@H](CCCNC(=N)N)C(=O)N[C@@H](Cc1c[nH]c2ccccc12)C(=O)N[C@@H](CS)C(=O)N[C@@H](CCCNC(=N)N)C(=O)N1CCC[C@H]1C(=O)N[C@H](C(N)=O)C(C)C (stereo partly drawn) [fluorine-18 labelled] | – | C57BL/6 mice, male, B16-F10 tumour, spleen | intravenous, 2 h | – | tissue uptake | 0.34 ± 0.07 %ID/g
Cc1cc(C(C#N)c2ccc(Cl)cc2)c(Cl)cc1NC(=O)c1cc(I)cc(I)c1O (stereo not drawn) | HPLC, non-compartmental | Corriedale lambs, parasitized, plasma | subcutaneous, 5 mg/kg, together with: moxidectin 0.2 mg/kg subcutaneous | – | MRT | 31 ± 6.92 days
CSCC[C@@H]1NC(=O)[C@H](CC(=O)O)NC(=O)CNC(=O)[C@H](CCCNC(=N)N)NC(=O)[C@H](C)NC(=O)[C@H](CCC(=O)O)NC(=O)[C@H](CCCNC(=N)N)NC(=O)[C@@H]2CSSC[C@@H]3NC(=O)[C@H](CO)NC(=O)[C@H]([C@@H](C)O)NC(=O)[C@@H]4CCCN4C(=O)[C@H](C)NC(=O)[C@H](Cc4c[nH]c5ccccc45)NC(=O)[C@H](CC(=O)O)NC(=O)CNC(=O)[C@H](CCCNC(=N)N)NC(=O)CNC(=O)[C@H](CCC(N)=O)NC(=O)[C@@H]4CCCN4C(=O)[C@@H](NC(=O)CNC(=O)C(C)F)CSSC[C@H](NC(=O)CNC(=O)[C@H](C)NC(=O)[C@H](CC(C)C)NC(=O)[C@H](CSSC[C@@H](C(=O)NCC(N)=O)NC(=O)[C@H]([C@@H](C)O)NC(=O)[C@H](CCCNC(=N)N)NC(=O)[C@@H]4CCCN4C1=O)NC(=O)[C@H](CC(=O)O)NC(=O)[C@H](CO)NC(=O)[C@H](CC(=O)O)NC(=O)[C@H](CCC(N)=O)NC(=O)[C@H](CO)NC3=O)C(=O)N[C@@H](C(C)C)C(=O)N2 (stereo partly drawn) [fluorine-18 labelled] | – | nude mice U-87 MG xenograft, intestine | intravenous, 1 h | – | tissue uptake | 0.94 ± 0.05 %ID/g
CN[C@@](C)(C[18F])C(=O)O | – | SCID mouse MDA-MB-468 xenograft, liver | 30 min, post injection | – | tissue uptake | 6.5 ± 0.8 %ID/g

A few entries again:
Molecule | assay | test system | conditions | scale | quantity | result
CCCCCOc1ccc(-c2ccc(-c3ccc(C(=O)N[C@H]4C[C@@H](O)[C@@H](O)NC(=O)[C@@H]5[C@@H](O)[C@@H](C)CN5C(=O)[C@H]([C@@H](C)O)NC(=O)[C@H]([C@H](O)[C@@H](O)c5ccc(O)cc5)NC(=O)[C@@H]5C[C@@H](O)CN5C(=O)[C@H]([C@@H](C)O)NC4=O)cc3)cc2)cc1 | – | human infants, plasma | intravenous, 1.5 mg/kg/day after 3 mg/kg loading | – | Cmax steady state | 5.2 µg/mL
